# Measurements collected from several papers.
# Compare with care: the assays were run in different laboratories. ± gives the spread as reported.
# CDK2 with cyclin E: Cyclin-dependent kinase 2, with cyclin E (CDK2, Homo sapiens, UniProt P24941)
# CDK2 with cyclin A: Cyclin-dependent kinase 2, with cyclin A (CDK2, Homo sapiens, UniProt P24941)
# CDK2 with cyclin A2: Cyclin-dependent kinase 2, with cyclin A2 (CDK2, Homo sapiens, UniProt P24941)
# CDK2 with cyclin A1: Cyclin-dependent kinase 2, with cyclin A1 (CDK2, Homo sapiens, UniProt P24941)
Structure (SMILES),target,test,setting,how to read,remaining activity [%]
O=C(NC1CCC1)c1ccc2nc(-c3cccc(NS(=O)(=O)NCCN4CCCCC4)c3)cn2c1,"Cyclin-dependent kinase 2 (CDK2, Homo sapiens, UniProt P24941)",enzyme activity,10 µM,,95
CCCOc1ccc(OC)c(F)c1C(=O)c1ccc(C(=O)N[C@@H]2CNC[C@H]2NC(=O)c2ccc3[nH]ncc3c2)cc1,CDK2 with cyclin E,enzyme activity,10 µM,,94
O=C1NC(=O)/C(=C/c2ccc(-c3ccc(F)cc3O)o2)S1,CDK2 with cyclin A,enzyme activity,10 µM,,89
CC(=O)Nc1c(N)nc(SCC(=O)NN)[nH]c1=O,CDK2 with cyclin A2,kinase activity,1 nM,,91.7
CCN(CC)c1ccc(C2=NNC(=O)CC2C)cc1[N+](=O)[O-] (stereo not shown),CDK2 with cyclin A,"enzyme activity, inhibitor",10 µM,reference: vehicle,114
Cc1cc(Nc2cc(N3CCN(C)CC3)nc(Sc3ccc(NC(=O)C4CC4)cc3)n2)[nH]n1,CDK2 with cyclin A,"kinase activity, KinaseProfiler","0.03 µM, species human",reference: control,92
CC#CC(=O)N1CCC[C@H]1c1nc(-c2ccc(C(=O)Nc3ccccn3)cc2)c2c(N)nccn12,CDK2 with cyclin A1,"kinase activity, inhibitor, HotSpot radiometric","100 nM, added: ATP 10 µM",,88.8 ± 3.3
COc1cc(F)ccc1-c1ncnc(Nc2cccc(C[S@](C)(=N)=O)c2)n1,CDK2 with cyclin E,kinase activity,"10 µM, added: 10 µM ATP",,13
CC(=O)Nc1c(N)nc(SCC(=O)N/N=C/c2ccc([N+](=O)[O-])cc2)[nH]c1=O,CDK2 with cyclin A2,kinase activity,5 nM,,91.6
COc1ccc(F)cc1C(=O)NCc1ccc(-c2nn([C@@H](C)C(F)(F)F)c(N)c2C(N)=O)cc1,CDK2 with cyclin A1,"kinase activity, inhibitor, HotSpot radiometric","1000 nM, added: ATP at Km",,95.4 ± 1.8

# For quick reference, copied from above:
Structure (SMILES),target,test,setting,how to read,remaining activity [%]
O=C(NC1CCC1)c1ccc2nc(-c3cccc(NS(=O)(=O)NCCN4CCCCC4)c3)cn2c1,"Cyclin-dependent kinase 2 (CDK2, Homo sapiens, UniProt P24941)",enzyme activity,10 µM,,95
COc1ccc(F)cc1C(=O)NCc1ccc(-c2nn([C@@H](C)C(F)(F)F)c(N)c2C(N)=O)cc1,CDK2 with cyclin A1,"kinase activity, inhibitor, HotSpot radiometric","1000 nM, added: ATP at Km",,95.4 ± 1.8
